Published values of several laboratories.
Several values in a cell are separate wells, animals, samples, runs or records. Numbers after ± are the reported error.
CDK5 with p25: Cyclin-dependent kinase 5, with p25 (CDK5, Homo sapiens, UniProt Q00535)
UniProt Q00535, sequence (whole entry, looked up): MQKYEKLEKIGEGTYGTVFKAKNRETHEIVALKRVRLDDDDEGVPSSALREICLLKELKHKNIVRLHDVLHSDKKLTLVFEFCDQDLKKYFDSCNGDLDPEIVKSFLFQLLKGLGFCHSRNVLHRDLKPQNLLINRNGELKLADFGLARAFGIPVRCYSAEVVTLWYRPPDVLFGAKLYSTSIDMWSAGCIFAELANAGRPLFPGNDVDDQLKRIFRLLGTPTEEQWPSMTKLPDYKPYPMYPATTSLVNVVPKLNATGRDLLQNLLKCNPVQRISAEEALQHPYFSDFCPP
SPT15 full length assumed: SPT15 full length assumed (Saccharomyces cerevisiae, UniProt P13393)
UniProt P13393, sequence (whole entry, looked up): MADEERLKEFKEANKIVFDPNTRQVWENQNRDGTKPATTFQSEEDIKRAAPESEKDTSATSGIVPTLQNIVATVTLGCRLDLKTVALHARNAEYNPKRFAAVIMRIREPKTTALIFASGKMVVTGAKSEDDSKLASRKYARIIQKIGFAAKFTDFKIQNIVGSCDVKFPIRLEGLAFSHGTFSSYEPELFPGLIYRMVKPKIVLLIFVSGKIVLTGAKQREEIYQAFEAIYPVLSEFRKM
U2AF2: U2AF2 148-342 (Homo sapiens, UniProt P26368)
UniProt P26368, sequence (whole entry, looked up): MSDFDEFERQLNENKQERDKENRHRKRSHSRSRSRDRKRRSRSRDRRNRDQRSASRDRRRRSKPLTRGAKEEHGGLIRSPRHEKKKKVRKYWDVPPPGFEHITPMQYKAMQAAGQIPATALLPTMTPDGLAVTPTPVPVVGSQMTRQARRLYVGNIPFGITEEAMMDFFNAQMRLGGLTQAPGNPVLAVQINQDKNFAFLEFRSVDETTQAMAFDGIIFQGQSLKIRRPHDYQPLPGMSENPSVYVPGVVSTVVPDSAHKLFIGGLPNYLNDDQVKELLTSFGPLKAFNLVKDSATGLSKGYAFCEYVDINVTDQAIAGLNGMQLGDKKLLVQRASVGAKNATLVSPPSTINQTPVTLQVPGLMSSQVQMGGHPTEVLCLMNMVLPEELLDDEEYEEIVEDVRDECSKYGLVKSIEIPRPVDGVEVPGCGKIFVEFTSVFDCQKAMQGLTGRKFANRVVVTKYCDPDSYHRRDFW
B1: Aralar1, human; sequence looked up; chain AVKVQTTKRGDPHELRNIFLQYASTEVDGERYMTPEDFVQRYLGLYNDPNSNPKIVQLLAGVADQTKDGLISYQEFLAFESVLCAPDSMFIVAFQLFDKSGNGEVTFENVKEIFGQTIIHHHIPFNWDCEFIRLHFGHNRKKHLNYTEFTQFLQELQLEHARQAFALKDKSKSGMISGLDFSDIMVTIRSHMLTPFVEENLVSAAGGSISHQVSFSYFNAFNSLLNNMELVRKIYSTLAGTRKDVEVTKEEFAQSAIRYGQVTPLEIDILYQLADLYNASGRLTLADIERIAPLAEGALPYNLAELQRQQSPGLGRPIWLQIAESAYRFTLGSVAGAVGATAVYPIDLVKTRMQNQRGSGSVVGELMYKNSFDCFKKVLRYEGFFGLYRGLIPQLIGVAPEKAIKLTVNDFVRDKFTRRDGSVPLPAEVLAGGCAGGSQVIFTNPLEIVKIRLQVAGEITTGPRVSALNVLRDLGIFGLYKGAKACFLRDIPFSAIYFPVYAHCKLLLADENGHVGGLNLLAAGAMAGVPAASLVTPADVIKTRLQVAARAGQTTYSGVIDCFRKILREEGPSAFWKGTAARVFRSSPQFGVTLVTYELLQRWFYIDFGGLKPAGSEPTPKSRIADLPPANPDHIGGYRLATATFAGIENKFGLYLPKFKSPSVAVVQPKAAVAATQ
B2: human alpha-actinin-1; sequence looked up; chain MDHYDSQQTNDYMQPEEDWDRDLLLDPAWEKQQRKTFTAWCNSHLRKAGTQIENIEEDFRDGLKLMLLLEVISGERLAKPERGKMRVHKISNVNKALDFIASKGVKLVSIGAEEIVDGNVKMTLGMIWTIILRFAIQDISVEETSAKEGLLLWCQRKTAPYKNVNIQNFHISWKDGLGFCALIHRHRPELIDYGKLRKDDPLTNLNTAFDVAEKYLDIPKMLDAEDIVGTARPDEKAIMTYVSSFYHAFSGAQKAETAANRICKVLAVNQENEQLMEDYEKLASDLLEWIRRTIPWLENRVPENTMHAMQQKLEDFRDYRRLHKPPKVQEKCQLEINFNTLQTKLRLSNRPAFMPSEGRMVSDINNAWGCLEQVEKGYEEWLLNEIRRLERLDHLAEKFRQKASIHEAWTDGKEAMLRQKDYETATLSEIKALLKKHEAFESDLAAHQDRVEQIAAIAQELNELDYYDSPSVNARCQKICDQWDNLGALTQKRREALERTEKLLETIDQLYLEYAKRAAPFNNWMEGAMEDLQDTFIVHTIEEIQGLTTAHEQFKATLPDADKERLAILGIHNEVSKIVQTYHVNMAGTNPYTTITPQEINGKWDHVRQLVPRRDQALTEEHARQQHNERLRKQFGAQANVIGPWIQTKMEEIGRISIEMHGTLEDQLSHLRQYEKSIVNYKPKIDQLEGDHQLIQEALIFDNKHTNYTMEHIRVGWEQLLTTIARTINEVENQILTRDAKGISQEQMNEFRASFNHFDRDHSGTLGPEEFKACLISLGYDIGNDPQGEAEFARIMSIVDPNRLGVVTFQAFIDFMSRETADTDTADQVMASFKILAGDKNYITMDELRRELPPDQAEYCIARMAPYTGPDSVPGALDYMSFSTALYGESDL
B3: human radixin; sequence looked up; chain MPKPINVRVTTMDAELEFAIQPNTTGKQLFDQVVKTVGLREVWFFGLQYVDSKGYSTWLKLNKKVTQQDVKKENPLQFKFRAKFFPEDVSEELIQEITQRLFFLQVKEAILNDEIYCPPETAVLLASYAVQAKYGDYNKEIHKPGYLANDRLLPQRVLEQHKLTKEQWEERIQNWHEEHRGMLREDSMMEYLKIAQDLEMYGVNYFEIKNKKGTELWLGVDALGLNIYEHDDKLTPKIGFPWSEIRNISFNDKKFVIKPIDKKAPDFVFYAPRLRINKRILALCMGNHELYMRRRKPDTIEVQQMKAQAREEKHQKQLERAQLENEKKKREIAEKEKERIEREKEELMERLKQIEEQTIKAQKELEEQTRKALELDQERKRAKEEAERLEKERRAAEEAKSAIAKQAADQMKNQEQLAAELAEFTAKIALLEEAKKKKEEEATEWQHKAFAAQEDLEKTKEELKTVMSAPPPPPPPPVIPPTENEHDEHDENNAEASAELSNEGVMNHRSEEERVTETQKNERVKKQLQALSSELAQARDETKKTQNDVLHAENVKAGRDKYKTLRQIRQGNTKQRIDEFEAM
B4: human hnRNP L; sequence looked up; chain MSRRLLPRAEKRRRRLEQRQQPDEQRRRSGAMVKMAAAGGGGGGGRYYGGGSEGGRAPKRLKTDNAGDQHGGGGGGGGGAGAAGGGGGGENYDDPHKTPASPVVHIRGLIDGVVEADLVEALQEFGPISYVVVMPKKRQALVEFEDVLGACNAVNYAADNQIYIAGHPAFVNYSTSQKISRPGDSDDSRSVNSVLLFTILNPIYSITTDVLYTICNPCGPVQRIVIFRKNGVQAMVEFDSVQSAQRAKASLNGADIYSGCCTLKIEYAKPTRLNVFKNDQDTWDYTNPNLSGQGDPGSNPNKRQRQPPLLGDHPAEYGGPHGGYHSHYHDEGYGPPPPHYEGRRMGPPVGGHRRGPSRYGPQYGHPPPPPPPPEYGPHADSPVLMVYGLDQSKMNCDRVFNVFCLYGNVEKVKFMKSKPGAAMVEMADGYAVDRAITHLNNNFMFGQKLNVCVSKQPAIMPGQSYGLEDGSCSYKDFSESRNNRFSTPEQAAKNRIQHPSNVLHFFNAPLEVTEENFFEICDELGVKRPSSVKVFSGKSERSSSGLLEWESKSDALETLGFLNHYQMKNPNGPYPYTLKLCFSTAQHAS

Molecule | target or system | assay | system | conditions | how to read | endpoint | result
ELDLIPLTY | Jurkat expressing engineered TCR | NFAT-eGFP reporter, fluorescence microscopy | peptide | concentration not given, HLA-A*01:01 on EL4 cells | – | GFP-positive cells | 0.524%
MTVCNASQRQAHAQATAVSL | HCC515 | phage binding | peptide | – | reference: targeting over control phage | selectivity ratio | 0.43 ± 0.1
human WNK1 | CYB5R4 knockout human cells | PP4 interaction, 3xFLAG-PP4C IP-MS | – | concentration not given | reference: CYB5R4 KO over parental | log2 fold change | 0.75
KEAFWDRCLSAINLMSSKMLQINA | CDK5 with p25 | phosphotransferase activity, radiometric | peptide | concentration not given, 10% DMSO, with: histone substrate | reference: p5-WT peptide | activity change | 52%
B1 (Aralar1, human) | CYB5R4 knockout human cells | PP4 interaction, 3xFLAG-PP4C IP-MS | – | concentration not given | reference: CYB5R4 KO over parental | log2 fold change | -0.38
GTDPIPLGM | Jurkat expressing engineered TCR | NFAT-eGFP reporter, fluorescence microscopy | peptide | concentration not given, HLA-A*01:01 on EL4 cells | – | GFP-positive cells | 0.416%
TGGATCAATCGAGAATTCCGCGCAAGTGGTATGGATCAAGTCAATCGGTCC (dsDNA; 5'-amino-C6 primer) | SPT15 full length assumed | array | double-stranded DNA, one strand shown | TBP alone | – | Kd | 2.98 ± 0.38 nM
human Hsc70 | CYB5R4 knockout human cells | PP4 interaction, 3xFLAG-PP4C IP-MS | – | concentration not given | reference: CYB5R4 KO over parental | log2 fold change | 0.39
epoetin alfa | UT7/EPO | phosphorylation, agonist, measured: phospho-STAT3 | – | 10 min | – | EC50 | 0.369 nM
B2 (human alpha-actinin-1) | CYB5R4 knockout human cells | PP4 interaction, 3xFLAG-PP4C IP-MS | – | concentration not given | reference: CYB5R4 KO over parental | log2 fold change | 0.58
methyl-β-cyclodextrin | HEK293F cells expressing GlyT1 A563F | – | – | 3.5 mg/mL, unit not given | reference: untreated | cell surface cholesterol | 74.5 and 72.4 and 66.8
Phosphate | human neutrophils | sulfate/chloride exchange, substrate, sulfate influx | – | external binding site | – | Km | > 20 mM
B3 (human radixin) | CYB5R4 knockout human cells | PP6 interaction, 3xFLAG-PP6C IP-MS | – | concentration not given | reference: CYB5R4 KO over parental | log2 fold change | 0.71
pregnenolone sulfate | MIN6 and INS1 cells | agonist, calcium microfluorimetry | – | concentration not given, with: DTT pretreatment | reference: not DTT-treated | responsive cells amplitude | decreased
ELDPIYLSY | Jurkat expressing engineered TCR | NFAT-eGFP reporter, fluorescence microscopy | peptide | concentration not given, HLA-A*01:01 on EL4 cells | – | GFP-positive cells | 1.95%
KEAFWDRCLSVINLMSSKMAQINA | CDK5 with p25 | phosphotransferase activity, radiometric | peptide | concentration not given, 10% DMSO, with: histone substrate | reference: p5-WT peptide | activity change | 68%
GCCGAUUUC (ssRNA) | U2AF2 | sequencing of bound RNA | RNA | motif only | – | Kd | 2110 nM
RTDPIPLGM | Jurkat expressing engineered TCR | NFAT-eGFP reporter, fluorescence microscopy | peptide | concentration not given, HLA-A*01:01 on EL4 cells | – | GFP-positive cells | 0.46%
Peginesatide | UT7/EPO | LC-MS/MS phosphoproteomics (trypsin), measured: JAK2 phospho-Tyr1007,1008 | – | 10 nM, 15 min | reference: vehicle | phosphorylation | 3.4 fold
EVDPIGHLY | Jurkat NFAT-eGFP expressing engineered TCR | NFAT reporter gene | peptide | concentration not given, HLA-A*01:01 presentation | – | GFP-positive cells | 1.91%
UUCUACUUU (ssRNA) | U2AF2 | sequencing of bound RNA | RNA | motif only | – | Kd | 5420 nM
Pam2CSK4 | BV-2 | Western blot, measured: NLRP3 | – | concentration not given | reference: control | relative protein level | 2.16
B4 (human hnRNP L) | CYB5R4 knockout human cells | PP4 interaction, 3xFLAG-PP4C IP-MS | – | concentration not given | reference: CYB5R4 KO over parental | log2 fold change | -0.73
ATGTCACAGAAGCAAAGTACGAATCAGAATCAAAATCAAGTCAATCGGTCC (dsDNA; 5'-amino-C6 primer) | SPT15 full length assumed | array | double-stranded DNA, one strand shown | TBP alone | – | Kd | 12.5 ± 0.48 nM
